Results from different studies.
Every numbered part comes from another study and shows a few of its results, in no order. Positions count from the first letter of the parent shown.

Block 1 — method: RNA Bind-n-Seq; form: RNA; sample: in vitro; tested at: not given; baseline: input RNA pool; reading: higher = stronger binding
Target: RING finger protein unkempt homolog, zinc fingers 1-6, GST-SBP tag (UNK, Homo sapiens, UniProt Q9C0B0, residues 30-357)
Setting: RNA with constant flanks, human and mouse sites, ends assumed
All sequences stand within: GGGAGUUCUACAGUCCGACGAUC … CAACAGAGGAUUGAGCAUCA
Residues (chain): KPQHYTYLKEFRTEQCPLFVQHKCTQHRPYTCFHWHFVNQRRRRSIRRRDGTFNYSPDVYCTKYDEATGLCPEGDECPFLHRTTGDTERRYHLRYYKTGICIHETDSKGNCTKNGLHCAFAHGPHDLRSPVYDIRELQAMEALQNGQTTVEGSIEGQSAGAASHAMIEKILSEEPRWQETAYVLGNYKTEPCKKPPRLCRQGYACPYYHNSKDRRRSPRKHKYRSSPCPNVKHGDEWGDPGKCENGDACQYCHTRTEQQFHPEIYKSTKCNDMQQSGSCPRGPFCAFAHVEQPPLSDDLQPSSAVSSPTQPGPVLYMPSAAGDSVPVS
Oligonucleotide	bound/input enrichment [ratio]
GAUAACAUUGGCAAAGACGAAUCAAAGGUGGAACAUUCAACCCACAGCAGAAAUGAACUGAUUUCAAAAGAGGAACAGAGUAGUCCAUCUUUGCUAGAAGAAAACAAAGUCCAUACAGAU	0.098
CAUUCCUGUCCCUUCCUGGCUUGAGCUCUUGGCUGUAUUCUGUGUGCCUCUACCAUGUCUGCUGUUUGGGUCUCUGCGCUGUGUGUUCUCAGGUGCAGCCAUGACUCCCCACUCUGUGCA	0.388
UGGGUGAUGGAGGAAAUGAGAGAGGAAUGCUCUUGAAAGGUGGUCUGUGGAUCUGUCUGAAUAGAAAGAGCACAGUAAGUAUGCAUUGCCGGAGAAAACGUCCUUGAAGCUGCUUGUCUC	0.251
UCAUGCCUGGUGGCCGGGCCGCACCAAAGGCACAUCGCGCUGUCGCCCCGCUACCUUAACAGGAAACGCACCGGCAUUCGAGAACAGCUUGAUGCGGAGCUCCUUCGCUAUUCUGAGAGC	0.115
AAACAUUUUGAUGGUGAAGAUUACACAUGCAUAACAUUCCAACCAGAUCUGUCCAAAUUUAAGAUGGAAAAACUUGACAAGGAUAUUGUGGCCCUCAUGACUAGAAGGGCAUAUGAUUUG	0.19
GAUUCAUUGCCUGCUUUACUGGAAUUCUACAAAAUACACUAUUUGGACACUACAACAUUGAUAGAACCAGUGGCCAGAUCAAGGCAGGGUAGUGGAGUGAUUCUCAGGCAGGAGGAGGCA	0.355
GCCUUUUUUGCCCAUUGCCCAGGGAUCAAGGUGGUAAUACCCCGAAGCCCUUUCCAGGCCAAGGGACUUCUGUUGUCAUGCAUAGAAGAUAAAAAUCCAUGUAUAUUUUUUGAACCUAAA	0.221
CUGAUAAUAGCCUAAGUCUUCUUUUCUUUUUUUUAGGCAUACUGAAUUUCUGUUUUAAAAUCCAUUGCAUGAAAAUUCAAUUUGCCUUGGUAUAUGCAGUUAGCAUUGCCAUUUUAAAAA	1.1

Block 2 — method: DHFR PCA, deep sequencing; sample: yeast; added: (+)-ABA 0.032 µM; baseline: wild-type fitted maximum; reading: higher = stronger binding
Target: ABI1, truncated, D143A, DHFR fusion (Arabidopsis thaliana)
Setting: methotrexate growth selection, single substitutions
Starting sequence: PYL1, truncated, DHFR fusion (Arabidopsis thaliana); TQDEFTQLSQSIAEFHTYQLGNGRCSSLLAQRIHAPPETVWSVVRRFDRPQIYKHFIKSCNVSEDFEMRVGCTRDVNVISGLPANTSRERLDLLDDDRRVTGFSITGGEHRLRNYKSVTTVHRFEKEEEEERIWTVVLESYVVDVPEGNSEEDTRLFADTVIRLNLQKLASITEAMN; partner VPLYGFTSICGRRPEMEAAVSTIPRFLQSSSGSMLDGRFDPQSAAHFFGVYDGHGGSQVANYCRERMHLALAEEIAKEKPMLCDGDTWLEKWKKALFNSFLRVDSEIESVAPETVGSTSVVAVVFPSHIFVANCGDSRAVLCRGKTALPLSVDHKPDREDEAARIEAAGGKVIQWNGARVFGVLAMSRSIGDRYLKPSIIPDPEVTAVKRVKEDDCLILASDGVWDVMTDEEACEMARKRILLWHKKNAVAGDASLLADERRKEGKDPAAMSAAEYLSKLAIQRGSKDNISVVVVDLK
Change	relative binding score [%]
Q2R	25.1
H55P	75.2
K54Q	9.65
V76T	-0.683
D97G	9.11
I79G	0.405
D96S	2.98
S63C	26.3
S171I	-2.48
F47Q	2.5
T73Y	50.7
I172H	-3.19
S63V	8.25
P146K	-3.15
I57M	-1.08
D48Q	-7.41
H16F	-0.62
E129Q	24.5

Block 3 — method: RNA Bind-n-Seq; form: RNA; sample: in vitro; tested at: 365 nM; baseline: no-protein control; reading: higher = stronger binding
Target: RNA binding protein fox-1 homolog 2, RRM domain, GST-SBP tag (RBFOX2, Homo sapiens, UniProt O43251-10, residues 100-194)
Setting: natural RNA segment, single round, ends assumed
All sequences stand within: GGGAGUUCUACAGUCCGACGAUC … UGGAAUUCUCGGGUGCCAA
Construct (chain): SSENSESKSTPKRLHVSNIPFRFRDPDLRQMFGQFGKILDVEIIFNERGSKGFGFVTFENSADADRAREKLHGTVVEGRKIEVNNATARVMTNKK
Oligonucleotide	RBNS enrichment (R)
CGUCUUCACCCCGUCUCCACCCCACCUCUUCUGGCCCCCAGCCUCACUGUGGCUCUCUACAGUACCUAACCUGCUACUAAUCACGGAGAAGAAUGUGGAGGGAAAGAACA	0.296
UGGCUGUCCUUUCCAGUGGCCUGGCUCCGCUGUGUGGAUGGGGAGAUCGGGGCCAGAGGCAGAACCCUGGUGAGGAAGCUCCAGUCCUGCUCUCUACCCAGCCCAUCUUG	0.413
CAGCAUGCUAAUCAGUGUCAGUGAAUCCACAGUCUUUACUUCCUGCCUCAUAAAGGGCCAGGUCUCCCCAGUACCAAGUCCUUUCCUCAUGAAGUUGUGUUGCCUCAGGC	1.77
AUCAUGCUGGUGAGAAAGUAUGAUUUCCCAACCUCUGCUUGUGGUGUUGGAAGGAGUGGCCUGGCCAGGCAGGUUGAUGUAAGGCUAUGGGAGACCCAAGGGGAACACAU	1.76
GGAAAAGAACCAACUCGGGCUCUCAACAGCAUUAAACCUGAUGCUUGUGUUUGUAAGUCUGCAUCUGCAUAAGUACUGACUCUGGAUGGAAAAGCUUGGAAGACCUUGGU	1.06
AAAAUGAAUGUAUUUCUGUUUUUGAAGAGAAUAAUUUUUUUCUCUAGGGAGAGGCGAGGUUACAGUGUUUAUAUUUUGGAACCUUCCUGAAGGUGUGAAAUUGUAAAUAU	1.68
UAUUGAGAGCUGCAGUAGUUUGCUUUUAGUAUUGUUGUUGCACUUGAGCAGAGACAAACCUUUAUUCAUAGUGUCUACAGGACAUAUGAAGAGUGCAAUGGCAAAACAAG	0.387
UUUAAAGAUUUUAUUUAAACUGUUAAGAAUCAAGCCGCGAACAAGCCCACUCCUUCAUGAACAAUUCCACUUUAUUGACUGAACUCUUCUCAUACCUUCACAUUUCUCAG	0.492

Block 4 — target: CCND2, cyclin fold, Cln2 fusion (human); method: yeast growth competition, sequencing; sample: yeast; setting: weak parent motif; baseline: not given; reading: higher = stronger binding
Starting sequence: RBL1 docking peptide (human); GSAKRRLFGEDPP; partner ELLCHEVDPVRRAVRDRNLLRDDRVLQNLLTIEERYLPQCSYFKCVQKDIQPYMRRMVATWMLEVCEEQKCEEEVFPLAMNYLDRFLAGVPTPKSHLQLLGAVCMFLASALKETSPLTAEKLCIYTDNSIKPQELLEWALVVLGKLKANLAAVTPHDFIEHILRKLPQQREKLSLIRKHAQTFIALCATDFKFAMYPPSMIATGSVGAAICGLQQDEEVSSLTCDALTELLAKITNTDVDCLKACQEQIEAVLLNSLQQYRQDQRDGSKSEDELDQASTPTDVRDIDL
Change	normalised enrichment score
GSAKRRTFGEDPP [L7T]	-0.203
GSDKRRLFGEDPP [A3D]	-0.052
GSAKRRLFGEDDP [P12D]	-0.0873
GSAKRRLFIEDPP [G9I]	0.424
GSAARRLFGEDPP [K4A]	0.639
GSAKRRLFGYDPP [E10Y]	0.143
GSVKRRLFGEDPP [A3V]	0.223
GSAKRRLFGGDPP [E10G]	-0.2
TSAKRRLFGEDPP [G1T]	0.35
GSAGRRLFGEDPP [K4G]	0.157
GSAKRRFFGEDPP [L7F]	0.00706
GSAYRRLFGEDPP [K4Y]	0.284
GSAKRRLNGEDPP [F8N]	-0.00495
GSAKRRLFGEDHP [P12H]	0.199

Some of these lines once more (block 2):
Change	relative binding score [%]
H55P	75.2
K54Q	9.65
V76T	-0.683
